Measurements of several laboratories.
± gives the spread as reported.
EGFR: Epidermal growth factor receptor (EGFR, Homo sapiens, UniProt P00533)
Ugcg: Ceramide glucosyltransferase (Ugcg, Mus musculus, UniProt O88693)
RAD52: DNA repair protein RAD52 homolog (RAD52, Homo sapiens, UniProt P43351)
DRD3: D(3) dopamine receptor (DRD3, Homo sapiens, UniProt P35462)
APLNR: Apelin receptor (APLNR, Homo sapiens, UniProt P35414)
CSNK2A2: Casein kinase II subunit alpha' (CSNK2A2, Homo sapiens, UniProt P19784)

Compound	tested on	assay	test system	conditions	quantity	result
C=CC(=O)Nc1cc(Nc2ncnc(Nc3ccccc3C(F)(F)F)n2)c(OC)cc1N(C)CCN(C)C	EGFR	EGFR phosphorylation, inhibitor	A-431		IC50	0.075 µM
OC[C@@H]1[C@@H](O)[C@H](O)[C@@H](O)c2nccn21	GAA (Homo sapiens, UniProt P10253)			pH 4.8	IC50	> 100 µM
OC[C@H]1[C@@H](O)[C@H](O)[C@@H](O)CN1CCCCCOCc1ccc(-c2ccccc2)c(F)c1	Ugcg	enzyme activity, inhibitor, fluorescence			IC50	0.0025 µM
CCN(CC)CC(=O)Nc1cccc(-n2cc(-c3ccc4ccc(-c5cn(-c6cccc(NC(=O)CN(CC)CC)c6)nn5)cc4c3)nn2)c1	ALK (Homo sapiens, UniProt Q9UM73)	enzyme activity, inhibitor			IC50	> 10 µM
C=CC(=O)Nc1ccc(OC)c(-c2c[nH]c3ncc(-c4cncc(C(=O)N(C)C)c4)cc23)c1	ABL1 (Homo sapiens, UniProt P00519)	kinase activity, inhibitor, HTRF		1 h preincubation, together with: ATP 20 µM	IC50	0.621 ± 0.116 µM
Cc1c(C(=O)Nc2ccc(S(=O)(=O)N(C)C3CCN(C)CC3)cc2)oc2c(Cl)cccc12	RAD52	ssDNA annealing, fluorescence quenching			IC50	9.8 µM
OC[C@@H]1[C@@H](O)[C@H](O)[C@@H](O)CN1CCCCCOCc1ccc(-c2cccc(F)c2)cc1	Ugcg	enzyme activity, inhibitor, fluorescence			IC50	0.025 µM
Cc1ccc(NS(=O)(=O)c2c(C)[nH]c(C)c2C(=O)N2CCCCC2)cc1Cl	DRD3	Go activation, antagonist, BRET		together with: dopamine	IC50	17 ± 0.9 µM
COc1cc(O)c2c(c1)CCC21C=CC(=O)CC1 (centres unmarked)	Si (Rattus norvegicus, UniProt P23739)	enzyme activity, inhibitor, absorbance			IC50	1450 µM
CN(C)c1cccc(-c2ccc(C3CCCCC3)cc2)c1		liver microsome stability	cynomolgus liver microsomes	1 µM	hepatic clearance	34 mL/min/kg
COc1cc(NC(=O)c2cnn(-c3ccc([N+](=O)[O-])cc3)c2C(F)(F)F)c(OC)cc1Cl	PTGS2 (Homo sapiens, UniProt P35354)	enzyme activity, inhibitor			IC50	3.82 µM
CCCCCCN1C[C@H](O)[C@@H](O)[C@H](O)[C@@H]1CO	Ugcg	enzyme activity, inhibitor, fluorescence			IC50	40 µM
CC(C)C[C@H](NC(=O)[C@H](CC(=O)O)NC(=O)[C@H](C)N)C(=O)N1CCC[C@H]1C(=O)N[C@@H](Cc1ccccc1)C(=O)N[C@H](CCC(=O)O)C(=O)N[C@@H](Cc1ccccc1)C(N)=O	Transcriptional regulator PlcR (Bacillus thuringiensis, UniProt A0ACM8Q0N2)	reporter gene, inhibitor, lacZ reporter	407 Cry−		IC50	0.977 ± 0.04 µM
OC[C@@H]1[C@@H](O)[C@H](O)[C@@H](O)CN1CCCCCOCC12CC3CC(C1)CC(COCCCCCN1C[C@H](O)[C@@H](O)[C@H](O)[C@H]1CO)(C3)C2	Ugcg	enzyme activity, inhibitor, fluorescence			IC50	20 µM
Cc1cc(C)c(S(=O)(=O)N(CC(=O)O)c2ccc(Nc3ccnc(N4CCCC4)n3)cc2)c(C)c1	Aurora kinase A (AURKA, Homo sapiens, UniProt O14965)	enzyme activity, inhibitor			IC50	> 100 µM
O=C(OCc1ccc(OC(=O)c2ccc([N+](=O)[O-])cc2)cc1)c1ccc([N+](=O)[O-])cc1	APLNR	β-arrestin recruitment, antagonist			IC50	> 100 µM
CCCN(CCC)CCCNC(=S)Nc1ccc2nc(N3CCN(C)CC3)cc(C)c2c1	RAD52	D-loop formation		together with: RAD52 450 nM	IC50	8.9 ± 1.6 µM
CNCc1ccc2c(c1)N(C(=O)OCCC(F)(F)F)[C@H](CNC(=N)N)[C@H]2NC(=O)C(=O)Nc1ccc(Cl)c(F)c1	env (Human immunodeficiency virus 1, UniProt Q2N0S5)	HIV-1 infection	Cf2Th-CD4/CCR5 cells	48 h	IC50	60.3 µM
N#C[C@@H]1CC(F)(F)CN1C(=O)CNC(=O)c1ccnc2ccc(OCCCN3CCN(C(=S)Nc4ccc(C[C@H]5CN(Cc6ccccn6)CCN(Cc6ccccn6)CCN(Cc6ccccn6)CCN5Cc5ccccn5)cc4)CC3)cc12	FAP (Homo sapiens, UniProt Q12884)	enzyme activity, inhibitor, fluorescence			IC50	0.00229 µM
CCOc1cc(CN2CC3(CC(N4CCC(C(=O)O)CC4)=NO3)C2)cc(OCC)c1-c1ccc(F)cc1	SSTR5 (Homo sapiens, UniProt P35346, N100T/Q99S)	cAMP level, agonist, GloSensor	AD293	Q99S/N100T mutant, together with: CST17 EC80 and forskolin	IC50	2.14 µM
Cc1nn(-c2cccc(N)c2)c(=O)c2cnc(Nc3ccc(N4CCNCC4)cc3)nc12	CSNK2A2	enzyme activity, inhibitor			IC50	> 10 µM
Fc1ccc(Nc2nc(NC3CCCCC3)c3cc(C(F)(F)F)ccc3n2)cc1F	ADRB2 (Homo sapiens, UniProt P07550, L155C)	β-arrestin2 recruitment, antagonist, BRET	HEK293	mutant L155C, together with: isoprenaline 1 µM	IC50	0.631 µM

Compound	tested on	assay	test system	conditions	quantity	result
COc1ccc(Oc2ccc(S(=O)(=O)Nc3ccc4c(c3)N(C)C(=O)C4)cc2)cc1	PLA2G4A (Homo sapiens, UniProt P47712)	enzyme activity, inhibitor, fluorescence			IC50	3.22 µM
O=C1Nc2ccc(Cl)cc2[C@@](C#CC2CC2)(C(F)(F)F)O1	ALDH1B1 (Homo sapiens, UniProt P30837)	enzyme activity, inhibitor			IC50	5.53 µM
COc1ccc(-c2nc(C(=O)NCCCN3CCOCC3)cc3c2[nH]c2ccccc23)cc1OC	RAD52	ssDNA annealing, fluorescence quenching			IC50	4.8 µM
OC[C@H]1[C@@H](O)[C@H](O)[C@@H](O)CN1CCCCCOCCC12CC3CC(CC(C3)C1)C2	Ugcg	enzyme activity, inhibitor, fluorescence			IC50	5 µM
COc1ccc(Nc2cc(NC3CC3)n3ncc(C#N)c3n2)cc1	CSNK2A2	inhibitor			IC50	0.24 µM
C=CC(=O)Nc1cc(Nc2ncnc(Nc3cc(Cl)c(F)cc3C(C)(C)O)n2)c(OC)cc1N(C)CCN(C)C	EGFR	EGFR phosphorylation, inhibitor	A-431		IC50	0.0076 µM
Cc1ccc(C(=O)c2oc3ccc(Cl)cc3c2NC(=O)CN2CCN(C)CC2)cc1	RAD52	ssDNA annealing, fluorescence quenching			IC50	6 µM
CNC(=O)c1ccc([C@H]2[C@@H](F)[C@@H](F)C[C@@H](F)[C@H]2F)cc1		liver microsome stability	human liver microsomes	1 µM, without NADPH	hepatic clearance	3.9 mL/min/kg
N#Cc1ccc(-c2ccc(COCCCCCN3C[C@H](O)[C@@H](O)[C@H](O)[C@H]3CO)cc2)cc1	Ugcg	enzyme activity, inhibitor, fluorescence			IC50	0.15 µM
COc1cc(N2CCOCC2)ccc1Nc1ncc(Cl)c(Nc2ccccc2NS(C)(=O)=O)n1	EGFR (Homo sapiens, UniProt P00533, L858R/T790M)	enzyme activity, inhibitor, TR-FRET			IC50	0.00158 µM
OC[C@@H]1[C@@H](O)[C@H](O)[C@@H](O)CN1CCCCCOCC(COCCCCCN1C[C@H](O)[C@@H](O)[C@H](O)[C@H]1CO)C12CC3CC(CC(C3)C1)C2	Ugcg	enzyme activity, inhibitor, fluorescence			IC50	40 µM
Fc1ccc(Nc2nc(NC3CCCCC3)c3ccccc3n2)cc1F	ADRB2 (Homo sapiens, UniProt P07550, F133L)	β-arrestin2 recruitment, antagonist, BRET	HEK293	mutant F133L, together with: isoprenaline 1 µM	IC50	1.26 µM
OC[C@@H]1[C@@H](O)[C@H](O)[C@@H](O)CN1CCCCCOCc1ccsc1	Ugcg	enzyme activity, inhibitor	RAW264.7	in situ, together with: C6-NBD-ceramide	IC50	0.35 µM
COCC1CN(C2CCN(c3cc(OC)c(Nc4ncc(Br)c(Nc5ccc6c(c5P(C)(C)=O)OCCO6)n4)cc3C)CC2)C1	EGFR (Homo sapiens, UniProt P00533, L858R)	enzyme activity, inhibitor, TR-FRET			IC50	0.00335 µM
Nc1ncc2c(n1)-c1c([nH]c3ccc(C4=CCOCC4)cc13)CCC2	CLK2 (Homo sapiens, UniProt P49760)	enzyme activity, inhibitor, radiometric			IC50	0.37 µM
Cc1ccc(N=C2CC(=O)c3sc(C)nc3C2=O)cc1	PRMT3 (Homo sapiens, UniProt O60678)	enzyme activity, inhibitor			IC50	1.8 µM
CC(C)=CCC1C(=C2CC(O)C(C)(C)O2)C(=O)C23C(=C(C)C)OC(C)(C)C2CCC13C (centres unmarked)	Beta-secretase 1 (Mus musculus, UniProt P56818)	enzyme activity in cells, inhibitor			IC50	0.434 µM
CCn1nc(Cl)c2c1-c1cnc(N)c(c1)O[C@H](C)c1cc(F)ccc1-c1nn(C)cc1C2	ALK (Homo sapiens, UniProt Q9UM73, L1198F)	enzyme activity, inhibitor		together with: 1 mM ATP	IC50	0.00091 µM
Cc1cc(N2CCN(C)CC2)nc2ccc(NC(=S)NCCCN3CCN(C)CC3)cc12	RAD52	D-loop formation		together with: RAD52 450 nM	IC50	15.4 ± 0.57 µM
Cc1cccc(NS(=O)(=O)c2c(C)[nH]c(C)c2C(=O)N2CCCC2)c1	DRD3	Go activation, antagonist, BRET		together with: dopamine	IC50	> 100 µM
O=C(Nc1ccc(CSc2ncccn2)cc1)c1ccc([N+](=O)[O-])cc1	APLNR	β-arrestin recruitment, antagonist			IC50	> 100 µM
Cc1cc(NC2CCN(C)CC2)ccc1-c1cc2c(N3CCC[C@H](C(=O)NCc4ccc(OC(F)(F)F)cc4)C3)ncnc2[nH]1	CAMK2A (Homo sapiens, UniProt Q9UQM7)	enzyme activity, inhibitor, mobility shift			IC50	5.31 µM

Excerpt of the above:
Compound	tested on	assay	test system	conditions	quantity	result
C=CC(=O)Nc1cc(Nc2ncnc(Nc3cc(Cl)c(F)cc3C(C)(C)O)n2)c(OC)cc1N(C)CCN(C)C	EGFR	EGFR phosphorylation, inhibitor	A-431		IC50	0.0076 µM
Cc1ccc(C(=O)c2oc3ccc(Cl)cc3c2NC(=O)CN2CCN(C)CC2)cc1	RAD52	ssDNA annealing, fluorescence quenching			IC50	6 µM
CNC(=O)c1ccc([C@H]2[C@@H](F)[C@@H](F)C[C@@H](F)[C@H]2F)cc1		liver microsome stability	human liver microsomes	1 µM, without NADPH	hepatic clearance	3.9 mL/min/kg
N#Cc1ccc(-c2ccc(COCCCCCN3C[C@H](O)[C@@H](O)[C@H](O)[C@H]3CO)cc2)cc1	Ugcg	enzyme activity, inhibitor, fluorescence			IC50	0.15 µM
COc1cc(N2CCOCC2)ccc1Nc1ncc(Cl)c(Nc2ccccc2NS(C)(=O)=O)n1	EGFR (Homo sapiens, UniProt P00533, L858R/T790M)	enzyme activity, inhibitor, TR-FRET			IC50	0.00158 µM
OC[C@@H]1[C@@H](O)[C@H](O)[C@@H](O)CN1CCCCCOCC(COCCCCCN1C[C@H](O)[C@@H](O)[C@H](O)[C@H]1CO)C12CC3CC(CC(C3)C1)C2	Ugcg	enzyme activity, inhibitor, fluorescence			IC50	40 µM
Fc1ccc(Nc2nc(NC3CCCCC3)c3ccccc3n2)cc1F	ADRB2 (Homo sapiens, UniProt P07550, F133L)	β-arrestin2 recruitment, antagonist, BRET	HEK293	mutant F133L, together with: isoprenaline 1 µM	IC50	1.26 µM
